Published values pooled from the literature.
Parts stem from different laboratories: compare values within a part only. Substitutions count along the parent as printed.

Sample 1 — technique: protein binding microarray; molecule type: double-stranded DNA, one strand shown; sample: in vitro; concentration: not given; relative to: not given; reading: higher = stronger binding; endpoint: E-score
Target: Histone acetyltransferase KAT6A, both winged helices, GST fusion (KAT6A, Homo sapiens, UniProt Q92794, residues 1-181)
Setting: 8-mer, flanks averaged, mean of 2 arrays, mostly near background
Construct (chain): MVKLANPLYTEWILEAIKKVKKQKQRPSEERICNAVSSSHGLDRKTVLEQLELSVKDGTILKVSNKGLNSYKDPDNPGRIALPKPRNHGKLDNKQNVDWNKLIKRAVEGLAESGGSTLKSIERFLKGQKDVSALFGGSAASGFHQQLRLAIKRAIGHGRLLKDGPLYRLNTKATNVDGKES
GATCGGCC: 0.238
GGACAACC: -0.0383
CGCTGTAA: 0.18
ACCATACC: -0.0689
CGTTCAGA: 0.0445
AACAGACT: -0.0755
ACTCTAGA: -0.192
CTATTCTC: -0.0876
TGAAGACA: -0.0368
ACGCAAAT: 0.0788
AAATACGA: -0.117
ACTATCTC: -0.0716
AGCGAAAC: 0.146
AGGCGAGG: -0.137

Sample 2 — technique: DHFR PCA, deep sequencing; sample: yeast; with: (+)-ABA 0.11 µM; relative to: wild-type fitted maximum; reading: higher = stronger binding; endpoint: relative binding score
Target: ABI1, truncated, D143A, DHFR fusion (Arabidopsis thaliana)
Setting: methotrexate growth selection, single substitutions
Parent: PYL1, truncated, DHFR fusion (Arabidopsis thaliana); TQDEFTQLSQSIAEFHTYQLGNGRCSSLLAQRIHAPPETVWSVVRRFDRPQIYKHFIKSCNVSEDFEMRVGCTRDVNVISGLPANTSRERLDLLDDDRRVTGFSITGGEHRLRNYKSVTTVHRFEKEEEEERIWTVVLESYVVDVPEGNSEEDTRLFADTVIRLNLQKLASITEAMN; partner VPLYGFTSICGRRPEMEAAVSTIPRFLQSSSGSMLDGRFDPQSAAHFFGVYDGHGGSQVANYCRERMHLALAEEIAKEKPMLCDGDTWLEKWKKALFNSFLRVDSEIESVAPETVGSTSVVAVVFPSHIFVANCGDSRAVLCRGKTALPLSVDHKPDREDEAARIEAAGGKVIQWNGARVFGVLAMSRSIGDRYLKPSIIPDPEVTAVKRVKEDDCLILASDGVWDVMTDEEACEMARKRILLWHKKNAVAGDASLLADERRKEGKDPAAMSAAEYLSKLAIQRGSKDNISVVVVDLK
E67V: 45.5%
S11M: 23%
F66S: 9.44%
R113G: 3.28%
C72R: -2.93%
V145P: -7.34%
R113T: 19.8%
H55E: 27.7%
I172K: 4.64%
F103M: -9.04%
N85K: 54.1%
H122Y: 5.67%
T17W: -5.1%
S59D: 33.6%
R69M: 16.6%

Sample 3 — technique: RNA Bind-n-Seq; molecule type: RNA; sample: in vitro; concentration: 90 pmol; setting: 4-mer, random 30-nt RNA, single round; relative to: input library; reading: higher = stronger binding; endpoint: 4-mer enrichment
Target: ATP-dependent RNA helicase DDX3X, helicase core (DDX3X, Homo sapiens, UniProt O00571, residues 132-607)
Sequence of UniProt O00571 (132-607, looked up): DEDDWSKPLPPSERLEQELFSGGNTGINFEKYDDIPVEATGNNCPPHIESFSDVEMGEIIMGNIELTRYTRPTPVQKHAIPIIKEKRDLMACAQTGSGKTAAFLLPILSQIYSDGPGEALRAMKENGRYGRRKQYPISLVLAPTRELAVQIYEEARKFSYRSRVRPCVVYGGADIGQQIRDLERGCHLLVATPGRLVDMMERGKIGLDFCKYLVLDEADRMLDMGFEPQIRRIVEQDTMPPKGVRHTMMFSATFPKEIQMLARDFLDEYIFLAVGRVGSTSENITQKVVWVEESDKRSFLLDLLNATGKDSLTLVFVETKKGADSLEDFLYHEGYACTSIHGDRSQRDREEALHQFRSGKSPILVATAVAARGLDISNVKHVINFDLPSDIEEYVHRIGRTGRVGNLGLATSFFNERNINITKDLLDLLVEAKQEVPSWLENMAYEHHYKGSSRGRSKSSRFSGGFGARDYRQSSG
With: 3 µM iPr-DMDA-PatA, 2 mM ADP, 2 mM phosphate
CAUU: 0.909 fold
GUGU: 0.988 fold
UGGC: 0.683 fold
ACAU: 1.06 fold
GUUC: 0.812 fold
AGCU: 0.86 fold
ACCC: 1.42 fold
UAGC: 0.895 fold
UGGU: 0.852 fold
UUUG: 0.972 fold
AGCC: 0.965 fold
UACG: 0.943 fold
CAAU: 1.04 fold
UCCU: 0.934 fold
CUUU: 0.865 fold

Sample 4 — target: CCNA1, cyclin fold, Cln2 fusion (human); technique: yeast growth competition, sequencing; sample: yeast; setting: weak parent motif; relative to: not given; reading: higher = stronger binding; endpoint: normalised enrichment score
Parent: MASTL docking peptide (human); PMIAKNLMCELDE; partner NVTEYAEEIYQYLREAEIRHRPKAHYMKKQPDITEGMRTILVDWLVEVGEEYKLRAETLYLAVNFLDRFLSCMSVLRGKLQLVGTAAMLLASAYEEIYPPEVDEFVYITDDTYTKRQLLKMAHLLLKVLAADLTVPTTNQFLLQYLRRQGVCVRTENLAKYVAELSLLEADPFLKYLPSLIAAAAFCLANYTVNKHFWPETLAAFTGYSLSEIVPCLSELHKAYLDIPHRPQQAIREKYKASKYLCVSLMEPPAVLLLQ
PMIAKILMCELDE [N6I]: 0.214
PMIAKNLGCELDE [M8G]: 0.035
PMRAKNLMCELDE [I3R]: 0.00404
PMIAKNLMCEFDE [L11F]: -0.33
PMIDKNLMCELDE [A4D]: -0.0139
PMLAKNLMCELDE [I3L]: -0.0427
PMIARNLMCELDE [K5R]: 0.0721
PMIAKNLRCELDE [M8R]: 0.121
PMIAKNLPCELDE [M8P]: 0.473
PMIAKNFMCELDE [L7F]: -0.0136
PMIAKNLMCELYE [D12Y]: -0.393
PMIAKNLMCENDE [L11N]: -0.117
PMIAKNLMEELDE [C9E]: -0.0451
PMIAKNLMFELDE [C9F]: 0.76
PMIAKNLMCELFE [D12F]: 0.198
PMIAKNLMCECDE [L11C]: 0.257
PMIAKNLMCERDE [L11R]: 0.0605
PMIAKNLCCELDE [M8C]: -0.222
PMIASNLMCELDE [K5S]: -0.344
PMIAKNLMCELSE [D12S]: 0.169
PMIVKNLMCELDE [A4V]: 0.109
PMIAKNMMCELDE [L7M]: -0.468
PMISKNLMCELDE [A4S]: 0.0368
PWIAKNLMCELDE [M2W]: 0.0744
PKIAKNLMCELDE [M2K]: 0.132

Repeated from above (sample 3):
UGGC: 0.683 fold
ACAU: 1.06 fold
GUUC: 0.812 fold
AGCU: 0.86 fold
ACCC: 1.42 fold
